Results from different studies.
Parts stem from different laboratories: compare values within a part only.
Sequence of UniProt Q99720 (whole entry, looked up): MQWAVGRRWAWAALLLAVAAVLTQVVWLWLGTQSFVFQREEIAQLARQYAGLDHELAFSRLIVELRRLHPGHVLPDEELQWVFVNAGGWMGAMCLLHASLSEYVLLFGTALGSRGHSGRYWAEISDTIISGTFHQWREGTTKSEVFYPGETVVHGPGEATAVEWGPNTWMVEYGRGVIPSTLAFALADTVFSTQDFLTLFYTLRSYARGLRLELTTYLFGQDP

Series 1
Species: human
Sample: microsomes or S9
Tested at: 2 µM
Time: 0.5 h
Compound | remaining compound [%]
CCc1ccc(OCC(=O)c2cc(CC)c(OC)cc2OC)cc1 | 6.74
Nc1nc2ncc(-c3ccc(Cl)cc3)c(N)n2n1 | 99.7
COC(=O)[C@@H](O)c1c(C)nc2[nH]c(C)c(C)c2c1Cl | 36.6
CC(=O)OCCNc1cnc(Cl)cc1Cn1c(C(=O)c2cc(C)cc(C)c2)c(C(C)C)c(=O)[nH]c1=O | 0.766
O=C(Cn1nc2c(cc1=O)CCCCC2)Nc1nc[nH]n1 | 92.9
CCCOc1ccc(S(=O)(=O)n2nc(C)cc2C)cc1C | 1.95
Cc1ncc2c(c1-c1nn[nH]n1)-c1ccccc1CC2 | 77.3
Cc1nc(C)c2c(C)c(CNCC(C)(C)N3CCOCC3)sc2n1 | 40.7
COc1ccc(C2CC(O)=Nc3c(C(=O)O)cn(-c4cc(F)cc(F)c4)c32)c(OC)c1OC (stereo not drawn) | > 99
CCOc1cc(=O)n2c(c1C(=O)N1CCCc3ccccc31)CCCC2 | 0.652
CN1C[C@H](NC(=O)CC2=C(c3ccccc3)CCC2=O)C[C@H]1C(=O)O | > 100
c1ccc(-c2nnc(-c3cc4ccccc4o3)o2)nc1 | 27.2
COc1cc(/C=C/C(C)=O)ccc1O | 40.1
O=S1(=O)N=C(N(CCOc2ccccc2)CCOc2ccccc2)c2ccccc21 | 2.43
Cc1nnc(C[S+]([O-])c2ccc(Cl)c(Cl)c2)n1C (stereo not drawn) | > 100

Series 2
Target: Serine/threonine-protein kinase 26 (STK26, Homo sapiens, UniProt Q9P289)
Sequence of UniProt Q9P289 (whole entry, looked up): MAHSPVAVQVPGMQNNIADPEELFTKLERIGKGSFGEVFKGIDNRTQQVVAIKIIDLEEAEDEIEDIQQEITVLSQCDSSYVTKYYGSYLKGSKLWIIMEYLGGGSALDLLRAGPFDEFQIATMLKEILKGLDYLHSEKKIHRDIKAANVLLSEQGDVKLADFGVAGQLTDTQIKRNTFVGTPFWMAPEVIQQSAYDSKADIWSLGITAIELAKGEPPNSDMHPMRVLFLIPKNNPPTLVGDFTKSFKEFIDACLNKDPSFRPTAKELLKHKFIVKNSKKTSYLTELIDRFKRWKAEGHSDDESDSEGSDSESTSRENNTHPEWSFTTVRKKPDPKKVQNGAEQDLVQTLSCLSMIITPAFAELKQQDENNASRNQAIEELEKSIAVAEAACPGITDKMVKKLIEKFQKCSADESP
Effect on: enzyme activity
Action: inhibitor
Tested at: 0.5 µM
Reference: control
Structure (SMILES) | remaining activity [%]
c1ccc(-c2cnc(Nc3ccc(OCCN4CCCC4)cc3)s2)cc1 | 101
O=c1cc(-c2cccc3c2Sc2ccccc2S3)oc(N2CCOCC2)c1 | 90.4
O=C(Nc1cccc(Nc2nccc(Nc3cccc(C(F)(F)F)c3)n2)c1)C1CC1 | 84.4
COc1cc2c(cc1OC)-c1[nH]nc(Nc3cccc(F)c3)c1C2 | 97
c1ccc(-c2[nH]ncc2-c2ccnc3ccccc23)nc1 | 83.4
Cc1cc2ncc(-c3ccccc3)nc2cc1C | 97.6
CN([C@@H](Cc1ccc(OS(=O)(=O)c2cccc3cnccc23)cc1)C(=O)N1CCN(c2ccccc2)CC1)S(=O)(=O)c1cccc2cnccc12 | 109
CCN(CC)C(=O)c1ccc(Nc2nc(OCC3CCCCC3)c3[nH]cnc3n2)cc1 | 84.9
CCN(CC)CCNC(=O)c1c(C)[nH]c(/C=C2\C(=O)Nc3ccc(F)cc32)c1C | 110
N#C/C(=C\c1ccc(O)c(O)c1)C(=O)NCc1ccccc1 | 103
Cc1cn(-c2cc(NC(=O)c3ccc(C)c(Nc4nccc(-c5cccnc5)n4)c3)cc(C(F)(F)F)c2)cn1 | 111
Cc1nc2cc3nc(-c4cccs4)cnc3cc2n1C | 99.3
O=C(NC(NC(=S)Nc1ccc(F)c([N+](=O)[O-])c1)C(Cl)(Cl)Cl)C(c1ccccc1)c1ccccc1 (stereo not drawn) | 89.3

Series 3
Target: His6 tag
Method: AlphaScreen counter screen
Tested at: concentration not given
SMILES | inhibition
Nc1ccc(-c2c3ccc(=O)cc-3oc3cc(O)ccc23)cc1C(=O)O | 0.2%
CCN(CCN(C)C)Cc1c(-c2ccc(F)cc2)[nH]c2ncccc12 | 5%
CCn1c(SCCC(=O)O)nc2c1c(=O)[nH]c(=O)n2C | -5.15%
O=C1NC(=O)C(=Cc2ccc(-c3ccc(F)cc3)o2)S1 | -2.4%
Cc1ccc(Nc2ncc(-c3ccncc3)n3ccnc23)cc1 | -7.5%
COc1cc(OC)c(/C=C/S(=O)(=O)Cc2ccc(OC)c(NCC(=O)O)c2)c(OC)c1 | 18.7%
COc1cc(Nc2ncc(F)c(Nc3ccc4c(n3)N(COP(=O)(O)O)C(=O)C(C)(C)O4)n2)cc(OC)c1OC | -9.85%
C#Cc1cccc(Nc2ncnc3cc4c(cc23)OCCOCCOCCO4)c1 | 5.25%
CC(=O)Nc1ccc(C=C(C#N)c2nc3ccccc3s2)cc1 | 13.4%
Clc1ccc(-c2nnc3ccc(SCc4cccnc4)nn23)cc1 | -1.5%

Mixed results
Structure (SMILES) | target | effect on | method | quantity | result
COc1cccc(NC(=O)c2nc3scc(CN(C)Cc4ccccc4)c3c(=O)[nH]2)c1 | Sigma non-opioid intracellular receptor 1 (SIGMAR1, Homo sapiens, UniProt Q99720) | binding | radioligand binding | Ki | 263 nM

For quick reference, copied from above (series 3):
SMILES | inhibition
CC(=O)Nc1ccc(C=C(C#N)c2nc3ccccc3s2)cc1 | 13.4%
Cc1ccc(Nc2ncc(-c3ccncc3)n3ccnc23)cc1 | -7.5%
O=C1NC(=O)C(=Cc2ccc(-c3ccc(F)cc3)o2)S1 | -2.4%
COc1cc(OC)c(/C=C/S(=O)(=O)Cc2ccc(OC)c(NCC(=O)O)c2)c(OC)c1 | 18.7%
